# Earlier results as cited in several papers.
# Protocols differ between the studies behind these lines. “And” joins repeats or separate records; there may be more than shown. Numbers after ± are the reported error.
SMILES,assay,system,setting,scale,measurement,result
C[Si](C)(C)O[Si](C)(C)O[Si](C)(C)O[Si](C)(C)C,,dry 1-octanol/air,25 °C,,log KOA,4.64
CN1CCN(C2=Nc3cc(Cl)ccc3Nc3ccccc32)CC1,,human,,,free Cmax,83.5 nM
CC(C)[C@@H](CS(=O)(=O)C(C)C)N1C(=O)[C@@](C)(CC(=O)O)C[C@H](c2cccc(Cl)c2)[C@H]1c1ccc(Cl)cc1,,glioblastoma patients,240 mg,,total intratumoral concentration,> 25 nmol/L
CCN(CC)CCNC(=O)c1c(C)[nH]c(/C=C2\C(=O)Nc3ccc(F)cc32)c1C,,FaSSIF,literature value,,solubility,10.5 µg/mL
O=C(O)C[C@H](O)C[C@H](O)/C=C/c1c(C2CC2)nc2ccccc2c1-c1ccc(F)cc1,,Sprague Dawley rats,"dose not given, added: silymarin",relative to: without silymarin,AUC increase,1.84 fold
CN(C)CCCC1(c2ccc(F)cc2)OCc2cc(C#N)ccc21 (stereo not drawn),,human,,,free Cmax,113 nM
CNCc1cc(-c2ccccc2F)n(S(=O)(=O)c2cccnc2)c1,,"human, plasma","10 mg multiple dose, observed clinical data",,Tmax,1.5 h
C[Si]1(C)O[Si](C)(C)O[Si](C)(C)O[Si](C)(C)O[Si](C)(C)O1,vapour pressure over solubility,,25 °C,,log KAW,2.25
C#C[C@]1(O)CC[C@H]2[C@@H]3CCc4cc(O)ccc4[C@H]3CC[C@@]21C,,"human, fed","0.025 mg, multiple doses",,"AUC(0-24 h), mean",0.799 ng·h/mL
Cc1cc(-c2nccc3c2ccn3CC(=O)Nc2ccc(-c3cnccn3)cn2)ccn1,,dog male,single dose,,dose with tubular degeneration,200 mg/kg
CNC(=O)c1cc(Oc2ccc(NC(=O)Nc3ccc(Cl)c(C(F)(F)F)c3)cc2)ccn1,,plasma,"concentration not given, total, steady state",,Cmax,21500 nM
CCc1cc(/C(C)=N/OCc2ccc(C3CCCCC3)c(C(F)(F)F)c2)ccc1CN1CC(C(=O)O)C1,population PK,"human, CYP2C9*1/*1",,,clearance,3.12 L/h
Nc1nc(NC2CC2)c2ncn([C@H]3C=C[C@@H](CO)C3)c2n1,,human,300 mg twice daily,,oral bioavailability,83%
COCCc1ccc(OC[C@H](O)CNC(C)C)cc1,,human,"oral, 100 mg single, enantiomer",,AUCtau,246 ng·h/mL
O=C1Nc2ccc(Cl)cc2[C@@](C#CC2CC2)(C(F)(F)F)O1,,water,,,solubility,< 1000 µg/mL
Nc1ccc(S(=O)(=O)NC(=O)c2ccccc2)cc1,,supercritical CO2,,,crossover pressure,160 to 180 bar
O=C(c1cc(Cc2n[nH]c(=O)c3ccccc23)ccc1F)N1CCN(C(=O)C2CC2)CC1,,human,"oral tablet, 100 mg twice daily, multiple dose",,Cmin,316 ng/mL
Nc1nc(=O)n(C2CSC(CO)O2)cc1F (stereo not drawn),,dog,750 mg/kg,,bioavailability,73%
CCOC(=O)C1=C(COCCN)NC(C)=C(C(=O)OC)C1c1ccccc1Cl (stereo not drawn),,supercritical CO2,,,crossover pressure,160 to 180 bar
COc1ccc2[nH]cc(CCNC(C)=O)c2c1,,water,,,solubility,< 1000 µg/mL
C/C(O)=C(\C#N)C(=O)Nc1ccc(C(F)(F)F)cc1,,supercritical CO2,,,crossover pressure,175 to 195 bar
Nc1ncnc2c1ncn2[C@@H]1O[C@H](CO)C[C@@H]1F,,human,,,oral bioavailability,75%
C[C@@H](Oc1ccc(S(C)(=O)=O)cc1C(=O)N1C[C@@H]2C[C@]2(c2cc(C(F)(F)F)on2)C1)C(F)(F)F,,"human, urine","dose not given, 336 h",relative to: dose,urinary excretion unchanged,~7.5%
CN1CCC(COc2cnc(-c3cccc(Cn4nc(-c5cccc(C#N)c5)ccc4=O)c3)nc2)CC1,mass balance study,human,,relative to: dose,biliary excretion,30%
CNC(=O)c1c(C)oc2cc(Oc3ncnc4cc(OC)c(OC)cc34)ccc12,clinical DDI study,human,"dose not given, added: itraconazole, CYP3A inhibitor",,exposure change,no effect
C[C@H]1CNC(=O)c2cnn3ccc(nc23)N[C@H](C)c2cc(F)ccc2O1,,human patients,dose not given,relative to: patients,patients with dose reductions,35%
Cc1cc2c(s1)Nc1ccccc1N=C2N1CCN(C)CC1,,healthy male volunteers,"dose not given, added: carbamazepine 200 mg twice daily for 2 weeks",,AUC(0-inf) decrease,34%
O=C(O)C(O)C(O)C(=O)O.c1cnc2cc3c(cc2n1)[C@@H]1CNC[C@H]3C1,,plasma,,,free Cmax,0.0154 nM
COc1cc(N)c(Cl)cc1C(=O)NC1CCN(CCCOc2ccc(F)cc2)CC1OC (stereo not drawn),,human,,,free Cmax,9.81 nM
Cn1nnc2c(C(N)=O)ncn2c1=O,,,oral,,elimination half-life,~1.8 h
CC(C)(C)NCC(O)COc1cccc2c1CC(O)C(O)C2 (stereo not drawn),,human,"concentration not given, clinical",,diarrhoea incidence,0%
Cc1nsc(-c2nnc3n2CCN(C(=O)c2ccc(F)cc2)[C@@H]3C)n1,,non-smoking women with VMS,"oral, lowest reported, population PK",,CL/F,10.8 L/h
O=C1NC(=O)/C(=C/c2ccc3ncnc(N4CCCCC4)c3n2)S1,,mouse,,,oral bioavailability,~46%
Cc1cn([C@H]2C=C[C@@H](CO)O2)c(=O)[nH]c1=O,,monkey,15 mg/kg,,oral bioavailability,80 to 86%
CCN1CCN(Cc2ccc(Nc3ncc(F)c(-c4cc(F)c5nc(C)n(C(C)C)c5c4)n3)nc2)CC1,,water,,,solubility,< 1000 µg/mL
C=CC(=O)N1CCC([C@@H]2CCNc3c(C(N)=O)c(-c4ccc(Oc5ccccc5)cc4)nn32)CC1,,human,320 mg once daily,,AUC(0-last),2700 ng·h/mL
COC(=O)N[C@@H](C)CNc1nccc(-c2cn(C(C)C)nc2-c2cc(Cl)cc(NS(C)(=O)=O)c2F)n1,,"human, feces",dose not given,,excreted fraction,47%
Cn1c(=O)c2[nH]cnc2n(C)c1=O,,plasma,literature data,,free Cmax,7060 nM
Cc1cn([C@H]2C[C@H](N=[N+]=[N-])[C@@H](CO)O2)c(=O)[nH]c1=O,,mouse,15 mg/kg,,oral bioavailability,85%
Cc1nc(Nc2ncc(C(=O)Nc3c(C)cccc3Cl)s2)cc(N2CCN(CCO)CC2)n1,,,pH 7,,aqueous solubility,< 1 µg/mL
O=C(O)c1cccnc1Nc1cccc(C(F)(F)F)c1,,plasma,"concentration not given, total, steady state",,Cmax,25200 nM
CCc1c2c(nc3ccc(OC(=O)N4CCC(N5CCCCC5)CC4)cc13)-c1cc3c(c(=O)n1C2)COC(=O)[C@]3(O)CC,,water,,,solubility,< 1000 µg/mL
C=CC(=O)N1CCC([C@@H]2CCNc3c(C(N)=O)c(-c4ccc(Oc5ccccc5)cc4)nn32)CC1,,"human patients, plasma","oral, 160 mg twice daily, day 8",,AUC(0-8),1200 ± 474 ng·h/mL
Cc1nc(NC(=O)N2CCC[C@H]2C(N)=O)sc1-c1ccnc(C(C)(C)C(F)(F)F)c1,,human,"oral, 300 mg single dose, added: high-fat high-calorie meal",relative to: fasted,increase in AUC,73%
COc1ccccc1[C@H](Cn1c(=O)n(C(C)(C)C(=O)O)c(=O)c2c(C)c(-c3ncco3)sc21)OC1CCOCC1,,rat,"3.0 mg/kg, at maximal efficacious dose",,AUC,312 ng·h/mL
COc1cc2c(Oc3ccc4[nH]c(C)cc4c3F)ccnc2cc1OCC1(N)CC1,,adult human,12 mg single dose,,AUC(0-120 h),617 ng/mL∗h
COc1cc(N2CCC(N3CCN(C)CC3)CC2)ccc1Nc1ncc(Cl)c(Nc2ccccc2P(C)(C)=O)n1,,healthy subjects,"dose not given, CYP3A inhibition, single dose, added: itraconazole 200 mg twice daily",,AUC(0-inf),13500 ng·h/mL
c1ccc2ccccc2c1,,"zebrafish embryos, whole embryo","148.7 ng/well, 48 hpf, single exposure",,amount in tissue,0.224 ng/well and 0.211 ng/well and 0.23 ng/well
Cc1nn(C)cc1S(=O)(=O)NC(=O)c1ccc(-n2ccc(OCC(C)(C)C(F)(F)F)n2)nc1N1C[C@@H](C)CC1(C)C,,"human reference individuals, plasma",,,fraction unbound,0.007
CCOC(=O)C1=C(C)NC(C)=C(C(=O)OC)C1c1cccc(Cl)c1Cl (stereo not drawn),,water,,,solubility,< 1000 µg/mL
FC(F)(F)c1ccc(CNc2ccc(Cc3c[nH]c4ncc(Cl)cc34)cn2)cn1,,"patients, plasma","oral, 600 mg once daily, day 15, mean",,AUC(0-24 h),107000 ng·h/mL
Cn1c(Cn2ccc(C(F)(F)F)c(Oc3cc(Cl)cc(C#N)c3)c2=O)n[nH]c1=O,,human,"dose not given, moderate induction, added: efavirenz",,exposure reduction,50 to 60%
CN(C)C(=O)c1cc2cnc(Nc3ccc(N4CCNCC4)cn3)nc2n1C1CCCC1,measured: constipation,advanced solid tumour or lymphoma patients,"dose not given, 3 weeks on 1 week off, any grade",relative to: patients,adverse event incidence,22.4%
CCCCOc1ccc(CC(=O)NO)cc1,,water,,,solubility,< 1000 µg/mL
COc1cc(N2CCC3(CCN(C)CC3)CC2)ccc1Nc1ncc(Cl)c(Nc2ccccc2P(C)(C)=O)n1,,NSCLC patients,"oral, 30 300 mg single dose",,CL/F,12.8 to 28.2 L/h
CN[C@@H](C)C(=O)N[C@H]1CN(S(=O)(=O)c2cccc(S(=O)(=O)N3CC[C@H]4CC[C@@H](C(=O)NC(c5ccccc5)c5ccccc5)N4C(=O)[C@@H](NC(=O)[C@H](C)NC)C3)c2)CC[C@H]2CC[C@@H](C(=O)NC(c3ccccc3)c3ccccc3)N2C1=O,,human,concentration not given,,accumulation,no effect
O=C(N/N=C/c1ccccc1O)c1ccncc1,,rabbit,"intravenous, dose not given",,half-life,0.3 h
Cc1c(F)c(N2CCNC(C)C2)cc2c1c(=O)c(C(=O)O)cn2C1CC1 (stereo not drawn),,human,,,free Cmax,4150 nM
C[C@]12CC[C@H](O)CC1=CC[C@@H]1[C@@H]2CC[C@]2(C)C(c3cccnc3)=CC[C@@H]12,,FaSSIF,literature value,,solubility,7.83 µg/mL
C[C@@H](Oc1cc(-c2cnn(C3CCNCC3)c2)cnc1N)c1c(Cl)ccc(F)c1Cl,measured: constipation,treatment-naive ALK-positive NSCLC patients,"dose not given, monotherapy trial",,adverse event incidence,43%
